Published values gathered from unrelated publications.
Numbered parts are unrelated; each lists some results of a single study.

Sample 1
Target: RING finger protein unkempt homolog, zinc fingers 1-6, SBP tag (UNK, Homo sapiens, UniProt Q9C0B0, residues 30-357)
Sequence of UniProt Q9C0B0 (30-357, looked up): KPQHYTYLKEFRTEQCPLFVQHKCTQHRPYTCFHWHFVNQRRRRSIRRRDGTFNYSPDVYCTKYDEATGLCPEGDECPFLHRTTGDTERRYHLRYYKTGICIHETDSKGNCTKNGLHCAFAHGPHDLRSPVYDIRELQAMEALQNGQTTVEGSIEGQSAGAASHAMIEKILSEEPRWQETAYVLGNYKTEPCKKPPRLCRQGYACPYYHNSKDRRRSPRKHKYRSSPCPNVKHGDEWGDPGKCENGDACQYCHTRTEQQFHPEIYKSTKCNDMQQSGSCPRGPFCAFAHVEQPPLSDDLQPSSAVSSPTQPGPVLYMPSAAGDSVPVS
Technique: RNA Bind-n-Seq
Molecule type: RNA
Medium: in vitro
Concentration: 100 nM
Notes: RNA with constant flanks, vertebrate orthologous sites, ends assumed
Reference: input RNA pool
Reading: higher = stronger binding
Endpoint: bound/input enrichment
Constant ends, left off below: GGGAGUUCUACAGUCCGACGAUC … CAACAGAGGAUUGAGCAUCA
GAAAGUGGCUUCUGCUCCAUUAAAAAGUAAAAAUUGUCCUCCAAAUAUAAAACUCCUUAAUAGAUAUUUUUGAAAUUAAAAUCUUUAAAUUUUAUAAAUCAGCUGUUGCCACUACACAAC: 1.67 ratio
UGUGAGGGUCUACUGACCACUCACUGUUAAUGUCUGAUAUCUGUAAACAUUUUCUGUUCUUAGUCUUUUACUUGUAUAAUUGAUGUUCUUUAAAAUUGUCAAUGUACAACAGGGCUUAUG: 0.384 ratio
AGAGGAUUAGGUUCGAUCCUUUACGUGUUUAAAAAAAAGCAUAAAAACAUUUUAAAAACAUAGAAAAAUUCAGCAAACCAUUUUUAAAGUAGAAGAGGGUUUUAGGUAGAAAAACGUAUU: 0.725 ratio
UUCACUACUCCUGAGCGUGUGACUGAGGGUGAAGCAUCCACCAGUGCUUCGAGGGCGCCGUAGUAUAUUUUUGCUGCCUCAGAGUCCCCAAAGCCUUCAAGCAGAAGUGGUAGUAGAUAG: 1.06 ratio
GUUGUGACCCAUUUAACAUACAUAAAAAACUAGCCAAAAAAAAUCUGCAUGUGAUCGAUUUAGAUGAUGCCACUUUUCUGAGCGCAAAAUUUGGAAGACAACUUGUACCUGGAUGGAAAU: 1.71 ratio
UGUCCUCGUUAAGCACUGCGUUCCAGACCGUGUCUGACUUAGUUAACCUAGGGGAUUUUAUAGUUUUCCUUUAAUGAAGUCCUGAUUAACACAGAGCAGUGGGGAGGACGGUCCCUCUCC: 0.47 ratio

Sample 2
Target: Interferon regulatory factor 3, full length, phosphomimetic (IRF3, Homo sapiens, UniProt Q14653, residues 1-427, S386D/S396D/S398D/S402D/T404D/S405D)
Technique: protein-binding microarray
Molecule type: double-stranded DNA, one strand shown
Medium: in vitro
Concentration: 2540 nM top
Notes: 60-bp whole probe
Together with: salmon DNA 0.4 mg/ml
Reference: random background probes
Reading: higher = stronger binding
Endpoint: fitted relative affinity
Constant ends, left off below: GCCTAGCAC … GTCTTGATTCGCTTGACGCTGCTG
Construct (chain): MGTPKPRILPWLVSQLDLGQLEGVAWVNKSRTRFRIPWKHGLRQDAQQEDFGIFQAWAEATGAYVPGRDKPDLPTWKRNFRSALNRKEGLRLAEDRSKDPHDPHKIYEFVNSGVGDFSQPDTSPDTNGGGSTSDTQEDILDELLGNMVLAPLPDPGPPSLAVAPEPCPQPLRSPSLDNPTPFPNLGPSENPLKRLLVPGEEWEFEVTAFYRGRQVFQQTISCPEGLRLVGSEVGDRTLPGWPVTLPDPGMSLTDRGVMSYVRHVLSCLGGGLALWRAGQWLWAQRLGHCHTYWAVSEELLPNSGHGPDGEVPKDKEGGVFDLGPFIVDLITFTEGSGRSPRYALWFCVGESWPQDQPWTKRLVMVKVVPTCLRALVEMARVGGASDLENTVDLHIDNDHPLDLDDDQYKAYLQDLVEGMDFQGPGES
GACGGGTTCGGTTTCGGGACGTGCTAG: 4.77 z-score
TCATATTTACCTCTCACACTGTGCTAG: 0.972 z-score
TCCTCTTTCACTGCTCCCCAAGTGCTA: 1.87 z-score
CACACTTTCCCCTTCCTAGTGTGCTAG: 3.46 z-score
CACTATTTAAGGCCTATGCACGTGCTA: 0.494 z-score
GACGGACCGGACTTTCGGGACGTGCTA: 0.381 z-score
TCACTGCTACCCTCTGAAACTGTGCTA: -0.306 z-score
CTAGGACTGGACTATCGGTTAGTGCTA: -0.178 z-score
TTAAAACTGAGACTGGATTAGTGCTAG: -0.32 z-score
TTACGTTTCGGTCTCGGTTAGTGCTAG: 7.91 z-score
TTAGAACTGGGGTATCTATTAGTGCTA: -0.392 z-score

Sample 3
Target: Ras GTPase-activating protein-binding protein 1, full length (G3BP1, Homo sapiens, UniProt Q13283)
Sequence of UniProt Q13283 (whole entry, looked up): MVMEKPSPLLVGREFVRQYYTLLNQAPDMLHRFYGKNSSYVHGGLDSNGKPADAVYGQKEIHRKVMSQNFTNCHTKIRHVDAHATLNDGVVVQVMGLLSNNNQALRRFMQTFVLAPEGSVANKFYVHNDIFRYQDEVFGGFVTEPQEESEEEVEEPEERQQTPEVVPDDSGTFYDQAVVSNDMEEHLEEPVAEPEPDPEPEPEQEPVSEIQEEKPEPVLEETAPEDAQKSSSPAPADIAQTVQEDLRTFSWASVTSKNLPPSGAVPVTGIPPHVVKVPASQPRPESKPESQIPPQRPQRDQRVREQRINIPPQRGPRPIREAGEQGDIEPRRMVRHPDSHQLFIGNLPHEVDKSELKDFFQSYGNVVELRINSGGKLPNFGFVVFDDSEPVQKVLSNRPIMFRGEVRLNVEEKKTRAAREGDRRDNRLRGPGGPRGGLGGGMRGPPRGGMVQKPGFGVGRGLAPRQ
Technique: RNA Bind-n-Seq
Molecule type: RNA
Medium: in vitro
Concentration: 200 nM
Notes: whole 134-nt RNA, ends assumed
Together with: 150 mM LiCl
Reference: input library
Reading: higher = stronger binding
Endpoint: log2 enrichment
Library: 7-deaza-guanosine replaces G
GGGAGUUCUACAGUCCGACGAUCGGGUCUGUUGCAAAUAAAUUCUAUGUUCACAAUGAUAUCUUCAGAUACCAAGAUGAGGUCUUUGGUGGGUUUGUCACUGAGCCUCAGGAGUGGAAUUCUCGGGUGUCAAGG: -0.518
GGGAGUUCUACAGUCCGACGAUCGUCCUGUGCUACACAUCGUAUGUACCGAAUCGGGGUUUUGGGGUUUUGGGGUUUUGGGGAAAGUAUUAUGUUACGCCGUUCGGAUCUGCAUGGAAUUCUCGGGUGUCAAGG: -0.00781
GGGAGUUCUACAGUCCGACGAUCAAAGGAAGUAAAAACAAAUGGAAAUGCUUCGGAUAGUGGCAGGGGUGGGGGUUGCUAAGGAAAGGGUGGGAUGGGAGUGGGUAAAGAGUUUGGAAUUCUCGGGUGUCAAGG: 0.0217
GGGAGUUCUACAGUCCGACGAUCAAGUCCUGUGCUACACAUCGUAUGUACCGAAUCGGGGAGGGGAAAAAGGGGUGGGGAAAGUAUUAUGUUACGCCGUUCGGAUCUGCACUUUGGAAUUCUCGGGUGUCAAGG: 0.561

Single results of other studies
PhoQ, residues 284 288 289 292 302 303 NLGVHL — fold induction (PhoP, residues 12 14 15 18 19 VHTVL (Escherichia coli, UniProt P23836); Sort-seq, item: YFP reporter; E. coli; PhoQ-PhoP variant library, together with: 10 µM Mg2+; reference: high Mg2+ state, higher = stronger signaling): 0.582
